Assay results of several laboratories.
Effect on: reporter gene
lasR: Transcriptional activator protein LasR (lasR, Pseudomonas aeruginosa, UniProt P25084)

SMILES	target	test	system	conditions	quantity	result
O=C(Cn1cc(C2CCCCC2)nn1)N[C@H]1CCOC1=O	lasR	antagonist			IC50	12.4 µM
O=C(CCCOc1ccc(Cl)cc1)N[C@H]1CCOC1=O	lasR	agonist	Escherichia coli, JLD271 with LasR plasmid		EC50	33 µM
CS(=O)(=O)c1cccc(OCCCC(=O)N[C@H]2CCOC2=O)c1	lasR (Pseudomonas aeruginosa, UniProt P25084, A127W)	agonist			EC50	1.2 µM
CCCCCc1cn(CC(=O)N[C@H]2CCOC2=O)nn1	lasR	antagonist			IC50	3.27 µM
O=C(Oc1c(Br)cc(Br)cc1CNC(=O)c1ccccc1[N+](=O)[O-])c1ccccc1Cl	lasR	agonist	Escherichia coli, JLD271 LasR reporter		EC50	< 0.005 µM
O=C(Cn1cc(-c2cc(F)cc(F)c2)nn1)N[C@H]1CCOC1=O	lasR	antagonist			IC50	13.7 µM
CCCCCCCCCCCNC(=O)CC(=O)c1ccccc1	lasR	antagonist	Pseudomonas aeruginosa PAO-JP2 GFP reporter	added: 150 nM OdDHL	IC50	0.5 µM
O=C(CCCOc1cccc(Br)c1)N[C@H]1CCSC1=O	lasR	agonist	Escherichia coli, JLD271 with LasR plasmid		EC50	0.013 µM
CS(=O)(=O)c1cccc(OCCCC(=O)NC2CC3CC3C2O)c1 (centres unmarked)	lasR	agonist			EC50	> 20 µM
CCCCCCCCCC(=O)CC(=O)Nc1ccccc1O	lasR	agonist	Escherichia coli, JLD271 with LasR plasmid		EC50	0.096 µM
CCCCCCCCCCNC(=O)CC(=O)c1ccccc1	lasR	antagonist	Pseudomonas aeruginosa PAO-JP2 GFP reporter	added: 150 nM OdDHL	IC50	0.7 µM

Repeated from above:
SMILES	target	test	system	conditions	quantity	result
O=C(Cn1cc(C2CCCCC2)nn1)N[C@H]1CCOC1=O	lasR	antagonist			IC50	12.4 µM
